Published values of several laboratories.
Protocols differ between the studies behind these lines. Several values in a cell are separate wells, animals, samples, runs or records.
CDK9: Cyclin-dependent kinase 9 (CDK9, Homo sapiens, UniProt P50750)
CDK9 with cyclin T1: Cyclin-dependent kinase 9, with cyclin T1 (CDK9, Homo sapiens, UniProt P50750)
CDK9 with cyclin K: Cyclin-dependent kinase 9, with cyclin K (CDK9, Homo sapiens, UniProt P50750)

CNC(=O)C1CCN(c2cc(C)c(F)cc2NC(=O)c2ccc(-c3cc(O)ccc3C)c(C)c2)CC1  remaining binding (CDK9; binding, competition with immobilised ligand; 1 µM): 95%
O=C(Nc1cc(-c2ccnc3[nH]ccc23)c(Cl)cn1)[C@H]1CCC[C@@H](NC(=O)C(F)(F)F)C1  remaining binding (CDK9; binding, competition with immobilised ligand; 0.1 µM): 0.2%
CN1CCN(Cc2ccc(-c3ccc(CO[C@H]4CCC[C@@H]4NC(=O)c4cc(-c5cnn(C)c5)cnc4N)cc3)cc2)CC1  inhibition (CDK9 with cyclin T1; enzyme activity, inhibitor; 0.1 µM): 5%
CN1CCN(Cc2ccc(NC(=O)c3cccc(C#Cc4cnc(N)c5ncccc45)c3)cc2C(F)(F)F)CC1  remaining binding (CDK9; cell-free assay, competition with immobilised ligand; 0.5 µM): 100%
NC(=O)[C@@H](O)C[C@H]1CCc2sc3ncnc(O[C@H]4CC[C@H](N5CCOCC5)CC4)c3c21  inhibition (CDK9 with cyclin T1; enzyme activity, inhibitor; 10 µM): 39%
CC(=O)N1c2ccc(-c3ccc(CNC(=O)c4cn5cc(-c6cnc(N)nc6)nc(N6CCOCC6)c5n4)cc3)cc2CC[C@@H]1C  remaining binding (CDK9; KINOMEscan; 10 µM): 90%
C[C@H]1CN(C(=O)c2cn(-c3ccnc(N)n3)c3cc(C#CC4(O)CCCCC4)ccc23)CCN1  inhibition (CDK9 with cyclin T1; enzyme activity, inhibitor; 1 µM): 4%
COc1cc(Nc2nc(C)cc(-c3cnn4nc(OC)ccc34)n2)cc(C(F)(F)F)c1  remaining activity (CDK9; inhibitor; 1 µM; reference: control): 100%
N[C@H]1CC[C@H](Nc2nccc(-c3cccnc3Oc3ccc(NC(=O)NC4CC4)c4ccccc34)n2)CC1  log2 LFQ intensity (CDK9; kinobead competition pulldown; HEK293/HCT116 lysate mixture; 10 µM, 1 h, 4 °C; lower = stronger competition): 25.6 and 25.3 and 25.4
Cc1[nH]nc2c1N=C(c1ccccc1Cl)c1cnc(N3CCOCC3)cc1N2  inhibition (CDK9; enzyme activity, inhibitor; 0.5 µM): 43.6%
CCn1cc(C(=O)O)c(=O)c2c(N)c(F)c(NC3CCCCC3)cc21  inhibition (CDK9 with cyclin K; kinase activity; 0.1 µM, with: ATP at Km): 13.9%
CC(C)=CC1OC(C)(C)C2C=C3C(=O)C(Cl)=CC(O)C3C3C(O)C4OC4C(=O)C132 (centres unmarked)  remaining binding (CDK9; cell-free assay, competition with immobilised ligand; 10 µM): 77%
CNC1C[S+]2CC[S+]3CC[S+](C1)[Ru-4]321([N]=C=S)[n]2c3ccc(OC)cc3c3c4c(c5cc(F)c[n+]1c5c32)C(=O)NC4=O (centres unmarked)  remaining binding (CDK9; KinomeScan; 0.1 µM; reference: untreated): 90%
CN1CC[C@@H](COc2cnc(C#N)cc2-c2ccn3nc(NC(=O)C4CC4)cc3c2)C1  inhibition (CDK9 with cyclin T1; enzyme activity, inhibitor; 1 µM): 20%
C=CC(=O)Nc1cccc(-c2cnc3[nH]cc(C(=O)NC(C)(C)C)c3n2)c1  inhibition (CDK9 with cyclin T1; enzyme activity, inhibitor; 0.1 µM): 2%
COc1ccc(NC(=O)Nc2ccc3c(c2)C(=O)N(C(C)CO)CC(C)C(CN(C)Cc2ccc4c(c2)OCO4)O3)cc1 (centres unmarked)  remaining activity (CDK9 with cyclin T1; kinase activity, KinaseProfiler; 0.03 µM, species human; reference: control): 109%
COc1c(OCCCN2CCOCC2)ccc2c1N=C(NC(=O)c1cnc(N)nc1)N1CCN=C21  remaining activity (CDK9 with cyclin T1; kinase activity, inhibitor; 1 µM; reference: untreated control): 108%
Nc1ncc2c(n1)-c1c([nH]c3ccc(C4=CCOCC4)cc13)CCC2  remaining binding (CDK9; binding, competition with immobilised ligand; 1 µM): 100%
CCc1nnc(Nc2cnc([C@@H]3CCCN(C(=O)CCc4cccnc4)C3)cn2)s1  activity vs control (CDK9; enzyme activity, inhibitor, ADP detection; 1 µM): 104%
C=C1CCCCCCCCCC(CO)C1=O (centres unmarked)  remaining binding (CDK9; cell-free assay, competition with immobilised ligand; 10 µM): 90%
O=C(O)CCC(=O)c1cccc(NS(=O)(=O)c2c[nH]c3ncccc23)c1  remaining activity (CDK9 with cyclin T1; kinase activity, radiometric; 10 µM): 100%
CNS(=O)(=O)Nc1nccc(Cc2c(C)c3ccc(Oc4ncccc4F)cc3oc2=O)c1F  remaining binding (CDK9; binding, competition with immobilised ligand; 10 µM): 100%
C=CC(=O)N1Cc2nc(-c3cc(-c4cc(Cl)cnc4Cl)c(F)cc3F)n(-c3ccncn3)c2C1  inhibition (Cyclin-dependent kinase 9, inactive (CDK9, Homo sapiens, UniProt P50750); kinome panel; 1 µM): 4.8%
CN1C[C@@H](c2c[nH]c3cc(Br)ccc23)NC[C@@H]1c1c[nH]c2cc(Br)ccc12  remaining activity (CDK9 with cyclin K; enzyme activity, inhibitor; 10 µM): 106%
Cc1cc(C)nc(Nc2ccc([C@@H]3CCCN(C(=O)/C=C/c4c(C)nn(C)c4C)C3)nc2)n1  activity vs control (CDK9; enzyme activity, inhibitor, ADP detection; 1 µM): 107%
Cc1cccc(O[C@H]2CCC[C@@H](C(C)CNCc3ccncc3)C2)c1 (relative stereo)  inhibition (CDK9 with cyclin T1; enzyme activity, inhibitor; 1 µM): 7%

For quick reference, copied from above:
CNS(=O)(=O)Nc1nccc(Cc2c(C)c3ccc(Oc4ncccc4F)cc3oc2=O)c1F  remaining binding (CDK9; binding, competition with immobilised ligand; 10 µM): 100%
C=CC(=O)N1Cc2nc(-c3cc(-c4cc(Cl)cnc4Cl)c(F)cc3F)n(-c3ccncn3)c2C1  inhibition (Cyclin-dependent kinase 9, inactive (CDK9, Homo sapiens, UniProt P50750); kinome panel; 1 µM): 4.8%
CN1C[C@@H](c2c[nH]c3cc(Br)ccc23)NC[C@@H]1c1c[nH]c2cc(Br)ccc12  remaining activity (CDK9 with cyclin K; enzyme activity, inhibitor; 10 µM): 106%
Cc1cc(C)nc(Nc2ccc([C@@H]3CCCN(C(=O)/C=C/c4c(C)nn(C)c4C)C3)nc2)n1  activity vs control (CDK9; enzyme activity, inhibitor, ADP detection; 1 µM): 107%
